Measurements pooled from the literature.
Protocols differ between the studies behind these lines. “And” joins repeats or separate records; there may be more than shown. ± gives the spread as reported.

| SMILES | cell line | assay | conditions | how to read | endpoint | result |
| --- | --- | --- | --- | --- | --- | --- |
| CC(C)C12OC1C1OC13C1(C)CCC4=C(COC4=O)C1CC1OC13C2OC(=O)CCCOC1OC(CO)C(O)C(O)C1O (stereo not shown) | SK-BR-3 | cell growth or viability, XTT | 47 h |  | IC50 | 2.16 µM |
| CCCCCCCC(=O)NCCCC[C@H](NC(=O)CCCCCCC)C(=O)N[C@@H](CCCCNC(=O)CCCCCCC)C(=O)NCC(=O)NCC(=O)NCC(=O)N[C@@H](CS)C(=O)N[C@@H](CCCNC(=N)N)C(=O)N[C@@H](CCCCN)C(=O)N1CCC[C@H]1C(=O)N[C@@H](CS)C(=O)N[C@@H](CCCNC(=N)N)C(=O)N[C@@H](CCCCN)C(=O)N1CCC[C@H]1C(=O)N[C@@H](CS)C(=O)N[C@@H](CCCNC(=N)N)C(=O)N[C@@H](CCCCN)C(=O)N1CCC[C@H]1C(N)=O | IPEC-J2 | cell growth or viability, MTT | 24 h |  | IC50 | 117 µM |
| Cc1cc(Nc2nc(C[C@@]3(C(=O)O)CCN(Cc4cccc(Cl)c4F)[C@H](C)C3)cc(C)c2F)[nH]n1 | HCC70 | cell growth or viability, ATP luminescence | 5 days |  | IC50 | 0.157 µM |
| CC(=O)N[C@H](C(=O)N[C@@H](CCCNC(=N)N)C(=O)N[C@@H](CCCCN)C(=O)N[C@@H](CCCNC(=N)N)C(=O)N[C@H](C(=O)N[C@@]1(C)CCCC=CCCC[C@@](C)(C(=O)N[C@@H](CCC(N)=O)C(=O)N[C@@H](CCC(=O)O)C(=O)N[C@@H](CCCNC(=N)N)C(=O)N[C@@H](CCC(=O)O)C(=O)N[C@@H](CC(C)C)C(=O)N[C@H](C(=O)N[C@@H](CCC(=O)O)C(N)=O)C(C)C)NC(=O)[C@H](CC(C)C)NC(=O)[C@H](CCCNC(=N)N)NC(=O)[C@H](CCCNC(=N)N)NC1=O)[C@@H](C)O)C(C)C | H3255 (EGFR L858R) | cell viability, ATP luminescence | 18 h |  | IC50 | > 50 µM |
| O=C(c1cc(Cc2n[nH]c(=O)c3ccccc23)ccc1F)N1CC(CNC2CC2)C1 | MX1 |  |  |  | IC50 | 0.0144 µM |
| CC(C)(C)C(=O)OCOP(=O)(OCOC(=O)C(C)(C)C)C1CCCN(O)C1=O (stereo not shown) | OVCAR-5 |  |  |  | GI50 | 2.01 µM |
| CC(C)C12OC1C1OC13C1(C)CCC4=C(COC4=O)C1CC1OC13C2OC(=O)CCC(=O)OC1OC(CO)C(O)C(O)C1O (stereo not shown) | A253 | cell growth or viability, XTT | 47 h |  | IC50 | 0.71 µM |
| Cc1cc(Oc2nc(N3CC[C@@H](c4ccncc4)C3)ncc2F)[nH]n1 | SK-N-AS | cell proliferation |  |  | IC50 | > 100 µM |
| CC[C@H](C)[C@H](NC(=O)[C@H](Cc1c[nH]cn1)NC(=O)[C@H](CCCNC(=N)N)NC(=O)[C@H](CCCNC(=N)N)NC(=O)[C@H](CCCNC(=N)N)NC(=O)CNC(=O)[C@H](CCCNC(=N)N)NC(=O)[C@H](CCCNC(=N)N)NC(=O)[C@H](CCCNC(=N)N)NC(=O)[C@H](CCC(N)=O)NC(=O)[C@H](CCCNC(=N)N)NC(=O)[C@H](CCCNC(=N)N)NC(=O)[C@H](CCCCN)NC(=O)[C@H](CCCCN)NC(=O)[C@H](CCCNC(=N)N)NC(C)=O)C(=O)N[C@H](C(=O)N[C@@H](CCCNC(=N)N)C(=O)N[C@@H](CCCCN)C(=O)N[C@@H](CCCNC(=N)N)C(=O)N[C@H](C(=O)N[C@@H](CC(C)C)C(=O)N[C@@H](CCCNC(=N)N)C(=O)N[C@@H](CCCNC(=N)N)C(=O)N[C@@H](CC(C)C)C(=O)N[C@@H](CC(C)C)C(=O)N[C@@H](CCC(N)=O)C(=O)N[C@@H](CCC(=O)O)C(=O)N[C@@H](CCCNC(=N)N)C(N)=O)[C@@H](C)O)C(C)C | SK-N-MC | cell viability | 18 h, serum-free |  | IC50 | > 10 µM |
| CC(=O)N[C@H](C(=O)N[C@@H](CCCNC(=N)N)C(=O)N[C@@H](CCCCN)C(=O)N[C@@H](CCCNC(=N)N)C(=O)N[C@H](C(=O)N[C@@H](CC(C)C)C(=O)N[C@@H](CCCNC(=N)N)C(=O)N[C@@]1(C)CCCC=CCCC[C@@](C)(C(=O)N[C@@H](CCCNC(=N)N)C(=O)N[C@@H](CCC(=O)O)C(=O)N[C@@H](CC(C)C)C(=O)N[C@H](C(=O)N[C@@H](CCC(=O)O)C(N)=O)C(C)C)NC(=O)[C@H](CCC(N)=O)NC(=O)[C@H](CC(C)C)NC(=O)[C@H](CC(C)C)NC1=O)[C@@H](C)O)C(C)C | H3255 (EGFR L858R) | cell viability, ATP luminescence | 18 h |  | IC50 | 2.54 ± 0.69 µM |
| COC(=O)[C@@H](NC(=O)[C@@H](NC(=O)[C@@H](NC(=O)[C@@H]1CCCN1C(=O)[C@H](C)NC(=O)OC(C)(C)C)C(C)C)C(C)C)C(C)C | DU-145 | cell growth or viability, SRB |  |  | IC50 | 25.6 µM and 18.8 µM and 19.2 µM |
| C[C@H]1[C@H](OC(=O)CCC(=O)OCCC2CCN(CC(=O)Nc3ccc([N+](=O)[O-])c(C(F)(F)F)c3)CC2)O[C@@H]2O[C@@]3(C)CC[C@H]4[C@H](C)CC[C@@H]1[C@@]24OO3 | PC-3 (p53 null) | cell growth, CCK-8 | 48 h |  | IC50 | > 50 µM |
| CSCC[C@H](N)C(=O)N[C@@H](C)C(=O)N[C@H](C(=O)N1CCC[C@H]1C(=O)N1CCC[C@H]1C(=O)N[C@H](C(=O)N[C@@H](Cc1ccc(O)cc1)C(=O)N[C@@H](C)C(=O)N[C@@H](CC(=O)O)C(=O)N[C@@H](CC(C)C)C(=O)NCC(=O)N[C@@H](CCCCN)C(=O)N[C@@H](CO)C(=O)N[C@@H](C)C(=O)N[C@@H](CCCNC(=N)N)C(=O)N[C@@H](CC(=O)O)C(=O)N[C@H](C(=O)N[C@@H](Cc1ccccc1)C(=O)N[C@H](C(=O)N[C@@H](CCCCN)C(=O)NCC(=O)N[C@@H](Cc1ccc(O)cc1)C(=O)NCC(=O)N[C@@H](Cc1ccccc1)C(=O)NCC(=O)N[C@@H](CC(C)C)C(=O)N[C@@H](CCCNC(=N)N)C(=O)N[C@@H](CCCCN)C(=O)N[C@@H](CCCCN)C(=O)N[C@@H](CCCNC(=N)N)C(=O)N[C@@H](CCCNC(=N)N)C(=O)N[C@@H](CCC(N)=O)C(=O)N[C@@H](CCCNC(=N)N)C(=O)N[C@@H](CCCNC(=N)N)C(=O)N[C@@H](CCCNC(=N)N)C(=O)NCC(=O)NCC(=O)O)[C@@H](C)O)C(C)C)[C@@H](C)O)C(C)C | CLL patient PBMCs | cell death, PI staining flow cytometry | 90 min |  | IC50 | > 30 µM |
| CCCCCCCC(=O)NCCCC[C@H](NC(=O)CCCCCCC)C(=O)N[C@@H](CCCCNC(=O)CCCCCCC)C(=O)NCC(=O)NCC(=O)NCC(=O)N[C@@H](CS)C(=O)N[C@@H](CCCNC(=N)N)C(=O)N[C@@H](CCCCN)C(=O)N1CCC[C@H]1C(N)=O | human red blood cells | haemolysis | pH 7.4, 37 °C | reference: Triton X-100 | IC50 | 519 µM |
| CN(C)C(=O)[C@@H](NC(=O)c1cc(-c2ccnn2C)ccc1-c1ccc(C(F)(F)F)cc1)c1cccc(C(F)(F)F)c1 | NKL effector, Ba/F3-MICB target | NKG2D-mediated cell killing, inhibitor |  |  | IC50 | 0.6 µM |
| CC(=O)N[C@H](C(=O)N[C@@H](CCCNC(=N)N)C(=O)N[C@@H](CCCCN)C(=O)N[C@@H](CCCNC(=N)N)C(=O)N[C@H](C(=O)N[C@@]1(C)CCCC=CCCC[C@@](C)(C(=O)N[C@@H](CCC(N)=O)C(=O)N[C@@H](CCC(=O)O)C(=O)N[C@@H](CCCNC(=N)N)C(=O)N[C@@H](CCC(=O)O)C(=O)N[C@@H](CC(C)C)C(=O)N[C@H](C(=O)N[C@@H](CCC(=O)O)C(N)=O)C(C)C)NC(=O)[C@H](CC(C)C)NC(=O)[C@H](CCCNC(=N)N)NC(=O)[C@H](CCCNC(=N)N)NC1=O)[C@@H](C)O)C(C)C | SK-N-MC | cell viability | 18 h, serum-free |  | IC50 | > 10 µM |
| CCOc1cccc(-n2c(CN3CCNCC3)nc3ccccc3c2=O)c1 | PANC-1 | cell growth or viability, ATP luminescence | 72 h |  | IC50 | > 10 µM |
| CC1CCC2C(C)C(OC(=O)CCC(=O)OC3C(C)OC(n4cc(F)c(=O)[nH]c4=O)C3OC(=O)CCC(=O)OC3OC4OC5(C)CCC6C(C)CCC(C3C)C46OO5)OC3OC4(C)CCC1C32OO4 (stereo not shown) | Hep3B | cell growth or viability, CCK-8 |  |  | IC50 | 33.6 µM |
| CCOc1ccccc1-n1c(CN2CCNCC2)nc2ccccc2c1=O | KP3 |  | 72 h |  | IC50 | 0.186 µM |
| CC(=O)N[C@H](C(=O)N[C@@H](CCCNC(=N)N)C(=O)N[C@@H](CCCCN)C(=O)N[C@@H](CCCNC(=N)N)C(=O)N[C@]1(C)CCCCCCC=CCCC[C@@](C)(C(=O)N[C@@H](CCCNC(=N)N)C(=O)N[C@@H](CCC(=O)O)C(=O)N[C@@H](CC(C)C)C(=O)N[C@H](C(=O)N[C@@H](CCC(=O)O)C(N)=O)C(C)C)NC(=O)[C@H](CCC(N)=O)NC(=O)[C@H](CC(C)C)NC(=O)[C@H](CC(C)C)NC(=O)[C@H](CCCNC(=N)N)NC(=O)[C@H](CCCNC(=N)N)NC(=O)[C@H](CC(C)C)NC1=O)C(C)C | H3255 (EGFR L858R) | cell viability | 18 h, serum-free |  | IC50 | 0.94 µM |
| CCOc1ccc(OCC)c(-n2c(CN3CCNCC3)nc3ccccc3c2=O)c1 | PANC-1 | cell growth or viability, ATP luminescence | 72 h |  | IC50 | 8.1 µM |
| CCC1(c2ccc(NC(=O)CCC(=O)OC3OC4OC5(C)CCC6C(C)CCC(C3C)C46OO5)cc2)CCC(=O)NC1=O (mixture of isomers) | OVCAR-3 | cell growth or viability, CCK-8 |  |  | IC50 | 1.24 µM |
| CCOc1ccccc1-n1c(CN2CCNCC2)nc2cc(Br)ccc2c1=O | PANC-1 | cell growth or viability, ATP luminescence | 72 h |  | IC50 | 0.39 µM |
| CC(=O)N[C@H](C(=O)N[C@@H](CCCNC(=N)N)C(=O)N[C@@H](CCCCN)C(=O)N[C@@H](CCCNC(=N)N)C(=O)N[C@H](C(=O)N[C@@H](CC(C)C)C(=O)N[C@@H](CCCNC(=N)N)C(=O)N[C@]1(C)CCCC=CCCC[C@@](C)(C(=O)N[C@@H](CCC(=O)O)C(=O)N[C@@H](CCCNC(=N)N)C(=O)N[C@@H](CCC(=O)O)C(=O)N[C@@H](CC(C)C)C(=O)N[C@H](C(=O)N[C@@H](CCC(=O)O)C(N)=O)C(C)C)NC(=O)[C@H](CC(C)C)NC(=O)[C@H](CC(C)C)NC1=O)[C@@H](C)O)C(C)C | H3255 (EGFR L858R) | cell viability | 18 h, serum-free |  | IC50 | > 100 µM |
| CCOc1ccc(Br)cc1-n1c(CN2CCNCC2)nc2ccccc2c1=O | PANC-1 | cell growth or viability, ATP luminescence | 72 h |  | IC50 | 0.7 µM |
| C[C@@H]1COCCN1c1nc(NCc2cccnc2C(F)(F)F)c2cccnc2n1 | cardiomyocytes | mitochondrial membrane potential | in vitro toxicology |  | IC50 | 9.5 µM |
| CCOc1ccc(F)cc1-n1c(CN2CCNCC2)nc2ccccc2c1=O | PANC-1 | cell growth or viability, ATP luminescence | 72 h |  | IC50 | 0.43 µM |
| [CH3][Ti+2][O]C(=O)c1ccc([S][Au][PH](c2ccccc2)(c2ccccc2)[c-]2cccc2)cc1.[Fe+2].c1cc[cH-]c1.c1cc[cH-]c1.c1cc[cH-]c1 | CAKI-1 | cell growth or viability, XTT | 24 h |  | IC50 | 8.22 µM |

For quick reference, copied from above:
| SMILES | cell line | assay | conditions | how to read | endpoint | result |
| --- | --- | --- | --- | --- | --- | --- |
| CCOc1ccccc1-n1c(CN2CCNCC2)nc2ccccc2c1=O | KP3 |  | 72 h |  | IC50 | 0.186 µM |
| [CH3][Ti+2][O]C(=O)c1ccc([S][Au][PH](c2ccccc2)(c2ccccc2)[c-]2cccc2)cc1.[Fe+2].c1cc[cH-]c1.c1cc[cH-]c1.c1cc[cH-]c1 | CAKI-1 | cell growth or viability, XTT | 24 h |  | IC50 | 8.22 µM |
